Experimental data gathered from unrelated publications.
Protocols differ between the studies behind these lines. “And” joins repeats or separate records; there may be more than shown. ± gives the spread as reported.

Structure (SMILES) | test | system | setting | half-life
CCC(C)C(N)C(=O)OC(C)OC(=O)C1=CC(N=C(N)N)C(NC(C)=O)C(C(O)C(O)CO)O1 (mixture of isomers) | – | acetate buffer | pH 4, 37 °C, chemical hydrolysis | > 4 h
CCC(=O)N[C@@H](C)C(=O)OCC(=O)N[C@@H](C)C(=O)O | – | water | pH 2, 25 °C | 1390 h
CCC(CC)[C@H](NC(C)=O)[C@@H]1[C@H](O)[C@@H](C(=O)OCCOC(=O)[C@@H](N)C(C)C)C[C@H]1NC(=N)N | – | phosphate buffer | pH 6.8, 37 °C, chemical stability | 3.57 ± 0.517 h
C=CC(=O)Nc1cccc(Cn2ncc3cnc(Nc4cnn(CCOC)c4)nc32)c1 | – | human whole blood | 5 µM | 3.2 h
C[C@H](NC(=O)COC(=O)[C@H](C)NC(=O)CO)C(=O)O | – | water | pH 2, 37 °C | 308 h
CC(C)C[C@H](NC(=O)[C@@H](N)Cc1c[nH]cn1)C(=O)N1CCC[C@H]1C(=O)N[C@@H](CO)C(=O)N[C@@H](Cc1ccc(O)cc1)C(=O)N[C@@H](CO)C(=O)N1CCC[C@H]1C(=O)N[C@@H](CO)C(=O)N1CCC[C@H]1C(=O)N[C@@H](CCC(N)=O)C(=O)O | – | human plasma | 0.1 mg/mL, 37 °C | 1.1 ± 0.0632 h
Cc1ccc(C(C)C)cc1.[Au][S]C1=NCCS1.[Cl][Ru][Cl].c1ccc(P(CP(c2ccccc2)c2ccccc2)c2ccccc2)cc1 | NMR | DMSO-d6 | – | ≥ 48 h
CC[C@H](C)[C@H](NC(=O)CNC(=O)CNC(=O)c1ccc2c(c1)C(=O)OC21c2ccc(O)cc2Oc2cc(O)ccc21)C(=O)N[C@@H](Cc1ccc(O)cc1)C(=O)N(C)[C@@H](C)C(=O)N[C@@H](C)C(=O)N1CCC[C@H]1C(=O)N(C)[C@@H](Cc1ccccc1)C(=O)N[C@@H](CCCCN)C(=O)N[C@@H](CCCCN)C(=O)N[C@@H](CCCCN)C(=O)N[C@@H](C)C(N)=O | CE-LIF | Baf/BCR-ABL cytosolic lysate | 1 µM, pH 7.4, 37 °C | 0.0267 h
Nc1nc2c(ncn2COCCOC(=O)[C@@H](N)CO)c(=O)[nH]1 | – | DPBS | pH 7.4, 34 °C, chemical hydrolysis | 29.3 ± 2.7 h
CC(=O)N[C@H](CC(=O)O)C(=O)N[C@H](Cc1c[nH]c2ccccc12)C(=O)N[C@H](Cc1ccccc1)C(=O)N[C@H](CCCCN)C(=O)N[C@H](C)C(=O)N[C@H](Cc1ccccc1)C(=O)N[C@H](Cc1ccc(O)cc1)C(=O)N[C@H](CC(=O)O)C(=O)N[C@H](CCCCN)C(=O)N[C@@H](C(=O)N[C@H](C)C(=O)N[C@H](CCC(=O)O)C(=O)N[C@H](CCCCN)C(=O)N[C@H](Cc1ccccc1)C(=O)N[C@H](CCCCN)C(=O)N[C@H](CCC(=O)O)C(=O)N[C@H](C)C(=O)N[C@H](Cc1ccccc1)C(N)=O)C(C)C | – | statin-treated high-risk CHD patients, plasma | oral, 300 mg daily, day 13, mean, detected subjects | 1.18 h
C#CCOCCOCCOCCOCCn1cc(C(ONC(=O)/C=C/C(C)=C/C2(C)Oc3cc(N(C)C)ccc3C2=O)(c2ccccc2)c2ccccc2)nn1 (centres unmarked) | HPLC | aqueous buffer | pH 7.3 | stable
Nc1nc2c(ncn2COCCOC(=O)[C@@H](N)CS)c(=O)[nH]1 | – | DPBS | pH 6.0, 34 °C, chemical hydrolysis | 6.7 ± 0.6 h
Cc1ccccc1-c1cc(N2CCNCC2)ncc1N(C)C(=O)C(C)(C)c1cc(C(F)(F)F)cc(C(F)(F)F)c1 | – | healthy volunteers, plasma | oral, dose not given | 73.3 to 82.9 h
CN[C@@H]1[C@H](O)[C@H](NC)[C@H]2O[C@]3(O)[C@H](O[C@@H]2[C@H]1O)O[C@H](C)C[C@@]3(O)CNCc1ccc(OC(F)(F)F)cc1 | – | rat liver microsomes | – | 28.8 h
Cc1nc(-c2ccc(NC(=O)c3cccs3)cc2Cl)no1 | chemical stability | buffer | 5 µM, pH 10.0, 37 °C | 0.768 ± 0.138 h
COc1cc(-c2nc3ccc(C(=O)NCCCN4CCN(c5cccc(C)c5C)CC4)cc3n2C2CCC2)cc(OC)c1OC | – | mouse liver microsomes | – | < 0.5 h
COc1cc(CNC(=O)CCCC/C=C/C(C)C)ccc1N | – | C57BL/6 mouse plasma | 2 µM | 36 h
NC(=O)c1cnc2[nH]ccc2c1NC1C2CC3CC1CC(OS(=O)(=O)O)(C3)C2 (centres unmarked) | – | Japanese adults, mild hepatic impairment, plasma | oral, 150 mg single dose | 7.74 h
O=[N][Fe]1([N]=O)[S](CCO)[Fe]([N]=O)([N]=O)[S]1CCO | degradation | 50 mM phosphate buffer | pH 7.4, 37 °C | 15.5 ± 0.6 h
CC(=O)N[C@@H](Cc1cnc[nH]1)C(=O)N[C@H](Cc1ccccc1)C(=O)N[C@@H](CCCNC(=N)N)C(=O)N[C@@H](Cc1c[nH]c2ccccc12)C(=O)NCCCOCCOCCOCCCNC(=O)COCC(=O)N[C@@H](Cc1cnc[nH]1)C(=O)N[C@H](Cc1ccccc1)C(=O)N[C@@H](CCCNC(=N)N)C(=O)N[C@@H](Cc1c[nH]c2ccccc12)C(N)=O | LC-MS/MS | mouse serum | 10 µM, 37 °C | 6 h
CC[C@H](C)[C@H](NC(=O)CNC(=O)CNC(=O)c1ccc2c(c1)C(=O)OC21c2ccc(O)cc2Oc2cc(O)ccc21)C(=O)N[C@@H](Cc1ccc(O)cc1)C(=O)N[C@@H](C)C(=O)N[C@H](C)C(=O)N1CCC[C@H]1C(=O)N(C)[C@@H](Cc1ccccc1)C(=O)N[C@@H](CCCCN)C(=O)N[C@@H](CCCCN)C(=O)N[C@@H](CCCCN)C(=O)N[C@@H](C)C(N)=O | CE-LIF | Baf/BCR-ABL cell cytosolic lysate | 1 µM, pH 7.4, 37 °C | 0.085 h

Structure (SMILES) | test | system | setting | half-life
CN[C@H](C)C(=O)NCC(=O)N[C@@H](Cc1ccc(O)cc1)C(=O)N[C@H]1CCCCNC(=O)C[C@@H](C(=O)N[C@@H](Cc2cccc3ccccc23)C(=O)N[C@@H](Cc2cccc3ccccc23)C(=O)N[C@H](CCC(=O)O)C(=O)O)NC(=O)[C@H](Cc2ccc(O)cc2)NC(=O)[C@H]([C@@H](C)O)NC(=O)[C@@H]2CCCN2C(=O)[C@H](CC(N)=O)NC1=O | – | human plasma | 37 °C | ≥ 24 h
CCC(CC)O[C@@H]1C=C(C(=O)OC(OC(=O)[C@@H](N)C(C)C)C(C)C)C[C@H](NC(=N)N)[C@H]1NC(C)=O (single isomer, unassigned) | chemical stability | SGF without pepsin | pH 1.2, 37 °C | stable
CCNCC#CCNc1ccnc2cc(Cl)ccc12 | – | plasma | 2 µM, pH 7.4, 37 °C | 2.64 h
COc1cc(C)c(Cc2ccc(O)cc2)cc1[C@@H]1S[C@H](CO)[C@@H](O)[C@H](O)[C@H]1O | – | Japanese T2DM patients, plasma | 2.5 mg luseogliflozin, day 7, once daily | 16.6 ± 2.42 h
O=C(Nc1ccc(-c2noc(C3CC3)n2)c(Cl)c1)c1cccs1 | plasma stability | mouse plasma | 5 µM, 37 °C | 1.48 h and 1.49 h
CC(C)[C@H](NC(=O)CNC(=O)[C@H](CCC(N)=O)NC(=O)[C@H](C)N)C(=O)O | – | healthy volunteers, LPS endotoxaemia, plasma | intravenous, 15 mg/kg/h, 2 h infusion, geometric mean, added: LPS 2 ng/kg | 0.15 h
CC(C)(C)c1nc(-c2ccc(NC(=O)c3cccs3)cc2Cl)no1 | plasma stability | mouse plasma | 5 µM, 37 °C | 1.3 ± 0.268 h
O=C(CCc1ccc(CNC(C(=O)OC2CCCC2)C2CCCCC2)cn1)NO (centres unmarked) | – | healthy volunteers, plasma | oral, single dose | 0.35 to 0.5 h
N=C(N)NCCC[C@H](NC(=O)[C@H](CCCNC(=N)N)NC(=O)[C@H](CCCNC(=N)N)NC(=O)[C@H](CCCNC(=N)N)NC(=O)[C@H](CCCNC(=N)N)NC(=O)[C@H](CCCNC(=N)N)NC(=O)[C@@H]1CCCN1C(=O)[C@@H]1CCCN1C(=O)[C@@H]1C[C@@H](O)CN1C(=O)[C@@H]1C[C@@H](O)CN1C(=O)CNC(=O)CNC(=O)[C@@H]1CCCN1C(=O)[C@@H]1C[C@@H](O)CN1C(=O)[C@@H]1C[C@@H](O)CN1C(=O)CNC(=O)[C@@H]1CCCN1C(=O)[C@@H]1C[C@@H](O)CN1C(=O)[C@@H]1C[C@@H](O)CN1C(=O)[C@@H]1CCCN1C(=O)CNC(=O)CNC(=O)CNC(=O)[C@@H]1CCCN1C(=O)CNC(=O)[C@@H]1C[C@@H](O)CN1C(=O)[C@@H]1C[C@@H](O)CN1C(=O)[C@@H]1CCCN1C(=O)[C@@H]1CCCN1C(=O)CNC(=O)CNC(=O)CNC(=O)CCNC(=S)Nc1ccc2c(c1)C(=O)OC21c2ccc(O)cc2Oc2cc(O)ccc21)C(N)=O | RP-HPLC | 25% human serum in RPMI | 37 °C | 13.9 h
CC(C)[C@@H]1NC(=O)[C@H](CO)NC(=O)CNC(=O)CNC(=O)[C@H](CCCNC(=N)N)NC(=O)[C@@H]2CCCN2C(=O)[C@@H](N)CSSC[C@@H](C(=O)O)NC1=O | – | plasma | – | 2.8 h
Cc1cccc(C)c1OCC(=O)N[C@@H](Cc1ccccc1)[C@H](C[C@H](Cc1ccccc1)NC(=O)[C@H](C(C)C)N1CCCNC1=O)OC(=O)[C@@H](N)CC(C)C | – | DPBS | 50 µM, pH 7.4, 37 °C | 15.4 ± 0.3 h
CCOC(=O)CCC(=O)Oc1ccc(/C=C/C(=O)/C=C(O)/C=C/c2ccc(OC(=O)CCC(=O)OCC)c(OC)c2)cc1OC | – | human plasma | 1.5 µM, 37 °C | 0.0808 ± 0.0158 h
CC(C)C[C@@H]1NC(=O)[C@H](C)NC(=O)[C@H](CC2CCN(C(=N)N)CC2)NC(=O)[C@H](Cc2ccccc2)NC(=O)[C@H](CCCNC(=N)N)NC(=O)[C@H](C)NC(=O)[C@@H]2CCCN2C(=O)[C@@H](N)CSSC[C@@H](C(=O)O)NC(=O)[C@H](Cc2ccccc2)NC1=O | remaining inhibitory activity | human plasma | – | > 24 h
CC(C)C[C@H](NC(=O)[C@H](CO)NC(=O)[C@H](CO)NC(=O)[C@H](CC(C)C)NC(=O)[C@@H](NC(=O)[C@@H]1CCCN1C(=O)[C@H](Cc1c[nH]c2ccccc12)NC(=O)[C@H](Cc1ccc(O)cc1)NC(=O)[C@@H]1CCCN1C(=O)[C@H](CC(C)C)NC(=O)[C@H](Cc1ccc(O)cc1)NC(=O)[C@@H](N)CCCCN)C(C)C)C(=O)O | plasma stability | rat plasma | – | ~0.167 h
CC(C)(C)[C@H](NC(=O)C(F)F)C(=O)N1C[C@H]2[C@@H]([C@H]1C(=O)N[C@H](C#N)C[C@@H]1CCCNC1=O)C2(C)C | – | human liver microsomes | microsomes 0.5 mg/mL | 0.758 h
CC(=O)O[C@@H]1CC[C@@]2(C)C(CC[C@]3(C)C2C(=O)C=C2C4[C@@H](C)[C@H](C)CC[C@]4(C)CC[C@]23C)[C@@]1(C)C(=O)OCC(=O)Oc1cc(C)ccc1C(C)C (some centres unmarked) | HPLC | 0.1 M HCl | 75 µM, pH 1.4, 37 °C, simulated gastric fluid | 25.3 h
C[C@H](N)C(=O)OCCOCn1cnc2c(=O)[nH]c(N)nc21 | – | DPBS | pH 5.0, 34 °C, chemical hydrolysis | 273 ± 148 h
N[C@@H](CC(=O)O)C(=O)OC(C(=O)O)c1ccc(Br)cc1[N+](=O)[O-] (mixture of isomers) | hydrolysis, 1H NMR | aqueous sodium phosphate, 12.5% DMSO-d6 | pH 7, dark, less stable diastereomer | 10.2 ± 0.1 h
NC(COc1cc(C(F)(F)F)cc(C(F)(F)F)c1)c1ccccc1 (centres unmarked) | chemical stability, HPLC | – | pH 7.4, 37 °C | > 720 h
NS(=O)(=O)c1ccc(NC(=O)NN[C@@H]2O[C@H](CO)[C@@H](O)[C@H](O)[C@@H]2O)cc1 | – | mouse liver microsomes | 1 µM | 20.6 h
